# Results gathered from unrelated publications.
# A part holds a random share of what one study measured.
# Chain of UniProt Q05397 (whole entry, looked up): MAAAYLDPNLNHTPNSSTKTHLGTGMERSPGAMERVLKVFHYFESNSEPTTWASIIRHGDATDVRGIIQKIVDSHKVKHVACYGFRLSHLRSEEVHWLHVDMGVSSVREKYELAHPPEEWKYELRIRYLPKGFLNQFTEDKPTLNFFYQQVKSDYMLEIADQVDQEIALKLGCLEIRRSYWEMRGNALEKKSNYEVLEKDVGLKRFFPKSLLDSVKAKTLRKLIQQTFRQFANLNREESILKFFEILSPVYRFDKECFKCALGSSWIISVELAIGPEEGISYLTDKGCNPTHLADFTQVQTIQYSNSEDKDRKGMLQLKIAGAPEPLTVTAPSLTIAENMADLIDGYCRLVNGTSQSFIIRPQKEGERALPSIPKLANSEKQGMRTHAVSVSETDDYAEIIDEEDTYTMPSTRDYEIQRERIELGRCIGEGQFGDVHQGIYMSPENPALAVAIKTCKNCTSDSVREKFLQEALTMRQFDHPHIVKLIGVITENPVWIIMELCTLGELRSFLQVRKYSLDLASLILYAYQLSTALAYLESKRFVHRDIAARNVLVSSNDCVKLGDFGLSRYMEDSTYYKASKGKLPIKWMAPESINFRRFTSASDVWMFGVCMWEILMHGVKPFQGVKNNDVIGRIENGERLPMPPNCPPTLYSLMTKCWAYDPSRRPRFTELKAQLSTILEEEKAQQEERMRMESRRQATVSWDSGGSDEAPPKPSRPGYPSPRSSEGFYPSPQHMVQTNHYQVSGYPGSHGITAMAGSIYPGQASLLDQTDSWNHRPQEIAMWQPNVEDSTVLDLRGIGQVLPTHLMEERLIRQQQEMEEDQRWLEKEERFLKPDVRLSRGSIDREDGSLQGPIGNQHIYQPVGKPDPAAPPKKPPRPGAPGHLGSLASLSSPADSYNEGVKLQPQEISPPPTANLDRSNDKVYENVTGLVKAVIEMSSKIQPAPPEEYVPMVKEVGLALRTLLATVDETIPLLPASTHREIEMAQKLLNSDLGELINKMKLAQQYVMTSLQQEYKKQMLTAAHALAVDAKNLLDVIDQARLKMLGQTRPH
# Chain of UniProt P07333 (whole entry, looked up): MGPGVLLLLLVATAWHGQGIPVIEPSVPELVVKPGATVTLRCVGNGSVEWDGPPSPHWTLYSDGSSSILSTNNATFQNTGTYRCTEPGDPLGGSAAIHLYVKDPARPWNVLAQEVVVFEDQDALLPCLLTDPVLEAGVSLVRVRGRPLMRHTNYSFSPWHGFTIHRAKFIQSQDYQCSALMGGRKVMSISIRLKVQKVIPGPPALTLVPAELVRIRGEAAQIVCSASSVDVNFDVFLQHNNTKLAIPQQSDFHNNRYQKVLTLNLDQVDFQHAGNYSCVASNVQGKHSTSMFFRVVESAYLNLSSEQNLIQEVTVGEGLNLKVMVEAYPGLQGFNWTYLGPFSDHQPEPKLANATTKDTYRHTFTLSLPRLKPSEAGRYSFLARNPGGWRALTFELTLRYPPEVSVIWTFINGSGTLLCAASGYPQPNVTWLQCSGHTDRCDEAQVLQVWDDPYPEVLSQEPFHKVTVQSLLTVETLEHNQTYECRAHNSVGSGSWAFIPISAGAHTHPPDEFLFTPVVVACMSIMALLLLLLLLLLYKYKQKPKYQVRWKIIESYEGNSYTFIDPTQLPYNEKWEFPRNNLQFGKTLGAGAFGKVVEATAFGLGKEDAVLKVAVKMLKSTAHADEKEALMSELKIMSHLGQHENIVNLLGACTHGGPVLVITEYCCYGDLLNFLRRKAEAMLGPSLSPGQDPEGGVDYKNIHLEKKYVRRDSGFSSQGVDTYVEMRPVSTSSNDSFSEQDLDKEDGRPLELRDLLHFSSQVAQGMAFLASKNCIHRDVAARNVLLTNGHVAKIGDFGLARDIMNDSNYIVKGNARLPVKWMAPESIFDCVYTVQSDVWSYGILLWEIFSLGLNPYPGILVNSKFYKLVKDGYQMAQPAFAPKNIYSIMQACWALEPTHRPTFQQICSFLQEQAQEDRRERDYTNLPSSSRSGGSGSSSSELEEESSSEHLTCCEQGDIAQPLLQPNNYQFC
# Chain of UniProt P53667 (whole entry, looked up): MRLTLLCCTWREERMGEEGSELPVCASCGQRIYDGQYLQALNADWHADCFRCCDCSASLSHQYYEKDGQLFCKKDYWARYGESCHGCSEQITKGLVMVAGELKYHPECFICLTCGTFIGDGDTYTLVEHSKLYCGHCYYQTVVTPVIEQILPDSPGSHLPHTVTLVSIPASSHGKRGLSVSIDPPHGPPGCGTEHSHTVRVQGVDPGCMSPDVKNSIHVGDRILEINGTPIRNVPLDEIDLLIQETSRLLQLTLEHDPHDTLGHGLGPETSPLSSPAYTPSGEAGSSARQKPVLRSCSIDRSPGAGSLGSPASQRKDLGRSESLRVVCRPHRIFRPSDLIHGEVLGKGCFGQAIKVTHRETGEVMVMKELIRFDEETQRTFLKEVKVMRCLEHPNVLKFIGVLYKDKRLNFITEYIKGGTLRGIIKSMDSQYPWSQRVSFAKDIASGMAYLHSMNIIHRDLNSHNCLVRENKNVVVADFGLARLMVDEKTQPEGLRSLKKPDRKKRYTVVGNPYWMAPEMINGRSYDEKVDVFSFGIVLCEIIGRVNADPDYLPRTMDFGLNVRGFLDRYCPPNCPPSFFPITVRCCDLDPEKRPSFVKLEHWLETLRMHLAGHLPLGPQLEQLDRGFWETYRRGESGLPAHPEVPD
# Chain of UniProt Q9Y6E0 (whole entry, looked up): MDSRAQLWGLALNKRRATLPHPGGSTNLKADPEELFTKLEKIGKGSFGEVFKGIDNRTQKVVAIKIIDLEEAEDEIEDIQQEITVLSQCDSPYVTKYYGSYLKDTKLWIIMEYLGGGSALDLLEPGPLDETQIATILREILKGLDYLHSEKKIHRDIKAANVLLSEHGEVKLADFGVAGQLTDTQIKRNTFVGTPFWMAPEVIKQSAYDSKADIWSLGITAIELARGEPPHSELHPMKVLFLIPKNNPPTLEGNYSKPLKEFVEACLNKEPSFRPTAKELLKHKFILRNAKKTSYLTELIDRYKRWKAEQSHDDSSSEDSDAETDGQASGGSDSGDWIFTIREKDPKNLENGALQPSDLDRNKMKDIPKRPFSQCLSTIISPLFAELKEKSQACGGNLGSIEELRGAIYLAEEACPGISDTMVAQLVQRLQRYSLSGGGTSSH
# Chain of UniProt P42336 (whole entry, unmodified, looked up): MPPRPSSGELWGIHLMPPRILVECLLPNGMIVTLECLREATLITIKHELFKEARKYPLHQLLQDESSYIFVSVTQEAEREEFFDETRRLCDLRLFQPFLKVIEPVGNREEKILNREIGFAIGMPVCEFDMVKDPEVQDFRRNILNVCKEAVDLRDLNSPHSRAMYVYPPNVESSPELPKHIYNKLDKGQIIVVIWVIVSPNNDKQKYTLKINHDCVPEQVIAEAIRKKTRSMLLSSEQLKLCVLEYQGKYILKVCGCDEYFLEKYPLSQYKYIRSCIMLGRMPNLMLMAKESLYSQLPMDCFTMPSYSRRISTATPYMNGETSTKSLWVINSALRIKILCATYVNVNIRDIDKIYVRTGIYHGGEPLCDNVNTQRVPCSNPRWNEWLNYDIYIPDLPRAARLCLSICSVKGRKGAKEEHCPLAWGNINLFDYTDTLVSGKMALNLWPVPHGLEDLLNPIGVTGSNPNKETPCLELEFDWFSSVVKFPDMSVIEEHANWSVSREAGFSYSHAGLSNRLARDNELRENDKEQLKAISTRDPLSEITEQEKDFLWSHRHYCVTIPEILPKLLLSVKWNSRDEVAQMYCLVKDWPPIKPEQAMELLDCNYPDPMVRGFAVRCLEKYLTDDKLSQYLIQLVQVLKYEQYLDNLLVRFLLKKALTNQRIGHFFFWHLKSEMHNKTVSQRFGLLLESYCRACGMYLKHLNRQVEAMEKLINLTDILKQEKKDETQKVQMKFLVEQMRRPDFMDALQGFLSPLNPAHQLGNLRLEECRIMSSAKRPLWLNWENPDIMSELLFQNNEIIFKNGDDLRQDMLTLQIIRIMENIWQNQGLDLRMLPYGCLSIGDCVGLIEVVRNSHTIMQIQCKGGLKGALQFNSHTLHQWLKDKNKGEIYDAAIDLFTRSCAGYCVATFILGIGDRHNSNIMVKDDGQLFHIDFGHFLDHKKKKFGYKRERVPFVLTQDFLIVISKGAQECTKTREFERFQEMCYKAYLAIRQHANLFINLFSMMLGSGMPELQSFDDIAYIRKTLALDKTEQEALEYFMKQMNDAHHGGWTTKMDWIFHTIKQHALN

# Study 1 — method: phase 2a clinical trial
# SMILES: CC(C)n1cnc(-c2ccc(F)cc2)c1-c1ncc(C(=O)Nc2ccc(N3CCN(C)CC3)cc2)[nH]1
# Host: patients with idiopathic pulmonary fibrosis
assay,setting,patients with treatment-emergent adverse events [%]
refers to: left bundle branch block,"30 mg once daily, Grade 4",0
refers to: aspartate aminotransferase increased,"dose not given, Grade 5, all drug arms total",0
refers to: first degree atrioventricular block,"60 mg once daily, Grade 3",0
refers to: left bundle branch block,"60 mg once daily, Grade 1",0
refers to: interstitial lung disease,"dose not given, Grade 5, all drug arms",0

# Study 2 — method: competition with immobilised ligand; concentration: 1 µM
# Compound: CO[C@H]1CC[C@H](CNc2ccc(S(=O)(=O)NC(=O)c3ccc(N4CCN(CC5=C(c6ccc(Cl)cc6)CC(C)(C)CC5)CC4)cc3Oc3cnc4[nH]ccc4c3)cc2[N+](=O)[O-])CC1
target,assay,remaining binding
"MAP3K7 (Homo sapiens, UniProt O43318)",cell-free assay,100%
"DAPK1 (Homo sapiens, UniProt P53355)",cell-free assay,73%
"BMPR1A (Homo sapiens, UniProt P36894)",binding,57%
"LIM domain kinase 1 (LIMK1, Homo sapiens, UniProt P53667)",cell-free assay,89%
"PIK3CA (Homo sapiens, UniProt P42336, E545A)",cell-free assay,67%
"STK24 (Homo sapiens, UniProt Q9Y6E0)",cell-free assay,75%
"EPHB6 (Homo sapiens, UniProt O15197)",cell-free assay,87%
"PTK2 (Homo sapiens, UniProt Q05397)",cell-free assay,100%
"CSF1R (Homo sapiens, UniProt P07333)",cell-free assay,86%

# Study 3 — mode: agonist
# Target: Beta-1 adrenergic receptor (ADRB1, Homo sapiens, UniProt P08588)
# Chain of UniProt P08588 (whole entry, looked up): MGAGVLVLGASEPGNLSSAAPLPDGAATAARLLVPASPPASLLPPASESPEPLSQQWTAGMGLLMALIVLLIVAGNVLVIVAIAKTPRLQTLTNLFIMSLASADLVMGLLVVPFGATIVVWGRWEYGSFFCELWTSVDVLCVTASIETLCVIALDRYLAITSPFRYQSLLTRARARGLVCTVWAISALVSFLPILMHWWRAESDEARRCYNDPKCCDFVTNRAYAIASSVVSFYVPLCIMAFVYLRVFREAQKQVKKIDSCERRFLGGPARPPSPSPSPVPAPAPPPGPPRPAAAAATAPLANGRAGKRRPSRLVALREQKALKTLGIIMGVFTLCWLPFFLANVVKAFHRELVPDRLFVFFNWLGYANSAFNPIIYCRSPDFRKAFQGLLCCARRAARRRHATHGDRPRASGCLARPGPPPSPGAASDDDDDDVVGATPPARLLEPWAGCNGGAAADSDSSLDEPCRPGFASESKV
Structure (SMILES),EC50 [µM]
CC(=O)Nc1sc2c(c1-c1cccc3ccccc13)CCNC2,≥ 100
FC(F)(F)c1cccc(-c2noc(-c3c[nH]nc3-c3ccccc3)n2)c1,≥ 100
COc1ccc(OC)c(C(O)Cn2ccn3nc(-c4ccc(C(C)C)cc4)cc3c2=O)c1 (stereo not shown),≥ 100
COc1ccccc1N1CCN(C(=O)c2ccc(C)n2C)CC1,≥ 100

# Other studies, line by line
SMILES,cell line,assay,setting,endpoint,value
Cc1cc2c(C(N)=O)c(N)n(-c3c(C)ccc(O)c3C)c2nc1C,"biomarker-positive cells (CCNE1 amp, FBXW7 mut, PPP2R1A loss)",cell growth,"168 h, average",IC50,0.186 µM

# Some of these lines once more (study 1):
assay,setting,patients with treatment-emergent adverse events [%]
refers to: first degree atrioventricular block,"60 mg once daily, Grade 3",0
refers to: left bundle branch block,"60 mg once daily, Grade 1",0
